Measured values from different studies.
Compare with care: the assays were run in different laboratories. Values joined by “and” are separate records of one study, mostly repeats; a detail may differ. ± marks the error that the study gave. ≈ marks a conversion by molar mass, not a printed value.

SMILES	organism	test	test system	conditions	how to read	measurement	value
CC(O)CNCC(C)O.O=C(O)C(Cl)Cl (stereo not shown)	Amaranthus retroflexus	herbicidal activity		15 mg/mL, 21 days, pre-emergence greenhouse		inhibition	0%
CC(C)(C)NCC(SS(=O)(=O)O)c1ccccc1 (stereo not shown)	Schistosoma mansoni		mice	400 mg/kg single dose, 1248 h, dosed day 7, perfused 52	baseline: vehicle	male worm burden reduction	20%
COc1c(Br)cc(CCNC2=CC3=NCCc4c[nH]c(c43)C2=O)cc1Br	Babesia divergens	parasite growth, SYBR Green		60 h, blood stage		IC50	572 nM
C[C@@H]1C(=O)O[C@@H](C)/C=C/C=C\[C@@H](C)[C@@H]2C=C[C@@H]3C[C@@]4(C)O[C@H]4[C@@H](C)[C@H]3[C@@H]2C(=O)C(Cl)(Cl)C1=O	Staphylococcus aureus		MRSA clinical isolate	OXA FA resistant		MIC	0.1 µg/mL (≈ 0.202 µM)
FC(F)(F)c1cccc(CNc2nc(NC3CCN(Cc4ccccc4)CC3)c3nc[nH]c3n2)c1	Cryptococcus neoformans			50 µM, 17 h, shaken broth culture	baseline: DMSO	growth inhibition	~95%
NCCOCCO.O=C(O)C(Cl)Cl	Eleusine indica			15 mg/mL, 21 days, pre-emergence, greenhouse		herbicidal inhibition	0%
C=C(NC(=O)c1csc(-c2nc3c(cc2O)-c2nc(cs2)C(=O)NC(C(C)O)C(=O)NC(=C(C)OC)c2nc(cs2)C(=O)NC2c4nc(cs4)C(=O)NC(COC(=O)c4c5c6c(cccc6n4O)COC(=O)C(OC4CC(C)(O)C(N(C)C)C(C)O4)C2OC5)c2nc-3cs2)n1)C(N)=O (stereo not shown)	Streptococcus pneumoniae		-25, immunocompromised mice, lung	2 mg/kg/day once daily, 24 h post-dose		lung bacterial load	6.49 log10 CFU/lung
CCCCCCCCCC(=O)N[C@@H](Cc1c[nH]c2ccccc12)C(=O)N[C@H](CC(N)=O)C(=O)N[C@@H](CC(=O)O)C(=O)N[C@@H]1C(=O)NCC(=O)N[C@@H](CCCNC(=O)OC2/C=C/CCCCC2)C(=O)N[C@@H](CC(=O)O)C(=O)N[C@H](C)C(=O)N[C@@H](CC(=O)O)C(=O)NCC(=O)N[C@H](CO)C(=O)N[C@@H]([C@H](C)CC(=O)O)C(=O)N[C@@H](CC(=O)c2ccccc2N)C(=O)O[C@@H]1C (stereo partly shown)	Staphylococcus aureus	planktonic bacterial growth, isothermal microcalorimetry	MSSA	2.0 µg/mL, 24 h, 37 °C		peak heat flow	0 µW
CCOC(=O)/C=C/[C@H](C[C@@H]1CCNC1=O)NC(=O)[C@@H](CC(=O)[C@@H](NC(=O)c1cc(C)on1)C(C)C)Cc1ccc(F)cc1	Rhinovirus C	viral replication, high-content imaging	RV-C15a-mGL			IC50	18 ± 8 nM
O=C(Oc1cc(OC(=O)c2cc(O)c(O)c(O)c2)c2ccccc2c1)c1cc(O)c(O)c(O)c1	herpes simplex virus 2			5 to 20 µM, HIV-1 co-infection		plaque number	decreased
COC1C=COC2(C)Oc3c(C)c(O)c4c(c3C2=O)C2=NC3(CCN(CC(C)C)CC3)NC2=C(NC(=O)C(C)=CC=CC(C)C(O)C(C)C(O)C(C)C(OC(=O)Nc2cnccn2)C1C)C4=O (stereo not shown)	Mycobacteroides abscessus	bacterial growth	subsp. massiliense clinical isolate	slow grower		IC50	9 nM
Cc1cccc2c1N(C(=O)n1ccnn1)CC2	Arabidopsis thaliana		kai2 mutant, seeds	10 µM		germination rate	11.5% and 16.7% and 26.9% and 32.1% and 8.6% and 7.7%
O=C1C(NCCc2cc(Br)c(O)c(Br)c2)=CC2=NCCc3c[nH]c1c32	Babesia divergens	parasite growth, SYBR Green		60 h, blood stage		IC50	6720 nM
Cc1c(CN(C)C(=O)/C=C/c2cnc3c(c2)CC(N)C(=O)N3)oc2ccccc12 (stereo not shown)	Klebsiella pneumoniae	broth microdilution	AR-0066			MIC	32 µg/mL (≈ 82 µM)
COC1=CC2=NCCc3c[nH]c(c32)C1=O	Babesia divergens	parasite growth, SYBR Green		60 h, blood stage		IC50	4430 nM
C[N+](C)(C)CCO.O=C([O-])C(Cl)Cl	Eleusine indica			15 mg/mL, 21 days, pre-emergence, greenhouse		herbicidal inhibition	0%
N=C(N)NCCC[C@@H]1NC(=O)[C@H](CCCNC(=N)N)NC(=O)[C@@H](C(c2ccccc2)c2ccccc2)NC(=O)[C@H](Cc2c[nH]c3ccccc23)NC(=O)[C@@H](C(c2ccccc2)c2ccccc2)NC(=O)[C@@H](CCCNC(=N)N)NC(=O)[C@@H](CCCNC(=N)N)NC1=O	Candida parapsilosis		ATCC 22019			MIC	16 µg/mL (≈ 12.7 µM)
CNCc1ccc2c(c1)C[C@H](CNC(=N)N)[C@H]2NC(=O)C(=O)Nc1ccc(Cl)c(F)c1	HIV-1	pseudovirus infection, Env pseudovirus neutralisation	TZM-bl, clade G isolate C1_B5			IC80	40400 nM
C=C[C@]1(C)C[C@@H](OC(=O)CSc2ccc(NC(=O)c3ccco3)cc2)[C@]2(C)[C@H](C)CC[C@]3(CCC(=O)[C@H]32)[C@@H](C)[C@@H]1O	Mycoplasma gallisepticum		infected chickens, lung	intramuscular, 40 mg/kg daily x3, 72 h		lung mycoplasma count	3.88 log10 CFU/mL and 4.23 log10 CFU/mL and 4.84 log10 CFU/mL and 4.1 log10 CFU/mL and 4.25 log10 CFU/mL and 3.33 log10 CFU/mL and 4.57 log10 CFU/mL
CNCc1ccc2c(c1)N(C(=O)OCc1c(F)c(F)c(F)c(F)c1F)[C@H](CNC(=N)N)[C@H]2NC(=O)C(=O)Nc1ccc(Cl)c(F)c1	HIV-1	viral infection	TZM-bl, CRF02_AG 263-8 Env pseudovirus			IC50	320 nM
O=C1C(=O)c2[nH]cc3c2C(=C1I)NCC3	Babesia divergens	parasite growth, SYBR Green		60 h, blood stage		IC50	10000 nM
COC1C=COC2(C)Oc3c(C)c(O)c4c(c3C2=O)C2=NC3(CCN(CC(C)C)CC3)NC2=C(NC(=O)C(C)=CC=CC(C)C(O)C(C)C(O)C(C)C(OC(=O)Nc2cscn2)C1C)C4=O (stereo not shown)	Mycobacteroides abscessus	intracellular growth, visual read	THP-1 derived macrophages, ATCC 19977			IC50	20 nM

Repeated from above:
SMILES	organism	test	test system	conditions	how to read	measurement	value
NCCOCCO.O=C(O)C(Cl)Cl	Eleusine indica			15 mg/mL, 21 days, pre-emergence, greenhouse		herbicidal inhibition	0%
